{"data": "Published values collected from several papers", "note": "Protocols differ between the studies behind these lines. Several values in a cell are separate wells, animals, samples, runs or records. ± marks the error that the study gave."}
{"Compound": "C=CC(=O)Nc1cccc(Cn2ncc3cnc(Nc4cnn(CCOC)c4)nc32)c1", "system": "male Sprague-Dawley rat", "setting": "oral, 180 mg/kg/day, day 28, 28-day subacute toxicity", "endpoint": "blood MCV", "value": "57.6 ± 1.98 fL"}
{"Compound": "CN1Cc2cc(Cl)ccc2-n2c(nnc2C2CCN(c3cccc([18F])n3)CC2)C1", "test": "PET two-tissue compartment model", "system": "rhesus monkey, hippocampus", "setting": "intravenous, dose not given, 70 min scan, baseline scan", "endpoint": "total volume of distribution", "value": "1.01 ± 0.3 mL/cm3"}
{"Compound": "N#[11C]c1ccc(-c2csc(NN=C3CCCC3)n2)cc1", "test": "radio-HPLC", "system": "C57BL/6 mouse, heart", "setting": "intravenous, 37 MBq, 15 min", "endpoint": "unchanged compound", "value": "49.4% and 49%"}
{"Compound": "CC(C)[C@@H]1NC(=O)CNC(=O)[C@H](CC(N)=O)NC(=O)[C@H](CCCNC(=N)N)NC(=O)[C@H](Cc2ccc(O)cc2)NC(=O)[C@H](C(C)C)NC(=O)[C@@H](NC(=O)[C@@H](NC(=O)[C@H](CC(N)=O)NC(=O)[C@H](Cc2c[nH]c3ccccc23)NC(=O)[C@H](C)NC(=O)[C@H](Cc2ccccc2)NC(=O)CNC(=O)[C@H](CCCCN)NC(=O)[C@H](Cc2ccccc2)NC(=O)[C@H](Cc2ccccc2)NC(=O)[C@H](CCCCN)NC(=O)OCC2c3ccccc3-c3ccccc32)C(C)C)CSSC[C@@H](C(=O)N[C@@H](Cc2c[nH]cn2)C(=O)N[C@@H](CCCNC(=N)N)C(=O)N[C@@H](CCCNC(=N)N)C(=O)N[C@@H](C)C(=O)N[C@@H](CC(N)=O)C(N)=O)NC(=O)[C@H](C(C)C)NC(=O)[C@H](CCCNC(=N)N)NC1=O", "system": "ICR mice, blood", "setting": "intraductal mammary, 10 mg/kg, day 5", "endpoint": "monocytes", "value": "3.33 ± 0.05%"}
{"Compound": "CC[C@H](C)[C@H](NC(=O)[C@H](CCCCN)NC(=O)CNC(=O)[C@H](CC(C)C)NC(=O)[C@H](Cc1ccccc1)NC(=O)[C@H](CCCCN)NC(=O)[C@H](CO)NC(=O)[C@H](Cc1ccccc1)NC(=O)[C@H](Cc1c[nH]c2ccccc12)NC(=O)[C@H](CCC(N)=O)NC(=O)[C@@H](NC(=O)[C@H](Cc1ccccc1)NC(=O)CCCCCNC(=O)CN1CCN(CC(=O)O)CCN(CC(=O)O)CCN(CC(=O)O)CC1)C(C)C)C(=O)N[C@@H](CCC(=O)O)C(=O)N1CCC[C@H]1C(=O)N[C@@H](CC(=O)O)C(=O)N[C@H](C(=O)N[C@@H](CO)C(=O)N[C@@H](CCC(N)=O)C(=O)N[C@H](C(=O)N[C@@H](CCC(N)=O)C(=O)N[C@@H](CC(=O)O)C(=O)N1CCC[C@H]1C(=O)N[C@@H](CC(N)=O)C(=O)N[C@@H](CC(=O)O)C(=O)N[C@@H](CCC(N)=O)C(=O)N[C@@H](Cc1ccc(O)cc1)C(=O)N[C@@H](CCC(=O)O)C(=O)N1CCC[C@H]1C(=O)N[C@@H](Cc1ccccc1)C(=O)O)C(C)C)C(C)C [copper-64 labelled]", "system": "C57BL/6 mice, liver", "setting": "together with: LPS 3 mg/kg intratracheal", "endpoint": "tissue uptake", "value": "15.3 ± 1 %ID/g"}
{"Compound": "CSCC[C@H](NC(=O)[C@@H](NC(=O)[C@H](CC(C)C)NC(=O)[C@@H](NC(=O)[C@H](Cc1c[nH]cn1)NC(=O)CCCCCNC(=O)[C@H](CCCNC(=N)N)NC(=O)[C@H](CCCNC(=N)N)NC(=O)[C@H](CCCNC(=N)N)NC(=O)[C@H](CCC(N)=O)NC(=O)[C@H](CCCNC(=N)N)NC(=O)[C@H](CCCNC(=N)N)NC(=O)[C@H](CCCCN)NC(=O)[C@H](CCCCN)NC(=O)[C@H](CCCNC(=N)N)NC(=O)CNC(=O)[C@@H](N)Cc1ccc(O)cc1)C(C)C)C(C)C)C(=O)N[C@@H](CS)C(=O)N[C@@H](C)C(=O)N[C@H](C(N)=O)[C@@H](C)O", "system": "C57BL/6J mice", "setting": "Alzet osmotic pump, 3 mg/kg, 8 weeks", "how to read": "relative to: leukocytes", "endpoint": "Lymph", "value": "78% and 91% and 73%"}
{"Compound": "CN[C@H]1CCN(C(=O)c2c(C)cc(C(F)(F)F)nc2-c2ccnc3cc(CN4C(=O)C5C(C4=O)C5(C)C)sc23)C1 (stereo partly shown)", "system": "CT26 tumour-bearing mouse, blood", "setting": "dose not given", "endpoint": "blood lymphocyte count", "value": "decreased"}
{"Compound": "CCCC[C@H]1C(=O)N(C)[C@@H](CCCC)C(=O)N[C@@H](CCCNC(=O)CN2CCN(CC(=O)O)CCN(CC(=O)O)CCN(CC(=O)O)CC2)C(=O)N[C@H](C(=O)NCC(N)=O)CSCC(=O)N[C@@H](Cc2ccc(O)cc2)C(=O)N(C)[C@@H](C)C(=O)N[C@@H](CC(N)=O)C(=O)N2CCC[C@H]2C(=O)N[C@@H](Cc2c[nH]cn2)C(=O)N[C@@H](CC(C)C)C(=O)N(C)CC(=O)N[C@@H](Cc2c[nH]c3ccccc23)C(=O)N[C@@H](CO)C(=O)N[C@@H](Cc2c[nH]c3ccccc23)C(=O)N1C [gallium-68 labelled]", "system": "NOD/SCID mice, CHO-hPD-L1 xenograft, intestine", "setting": "60 min, together with: blocking agent 50 µg co-injected", "endpoint": "tissue uptake", "value": "5.03 ± 0.21 %ID/g"}
{"Compound": "O=C1NC2(CC2)COc2ncc(F)cc2[C@H]2COCCN2c2ccn3ncc1c3n2", "system": "Sprague-Dawley rat, male, blood", "setting": "oral, 20 mg/kg/day, end of recovery, 4-week repeated-dose toxicity", "how to read": "relative to: red blood cells", "endpoint": "reticulocytes", "value": "2.42 ± 0.44%"}
{"Compound": "C#Cc1c(F)ccc2cc(O)cc(-c3ncc4c(N5CC6CCC(C5)N6C(=O)OC(C)OC(=O)C(CCCC)CCCC)nc(OC[C@@]56CCCN5C[C@H](F)C6)nc4c3F)c12 (stereo partly shown)", "test": "chemical stability", "system": "simulated intestinal fluid", "setting": "1 µM, 30 min", "endpoint": "compound remaining", "value": "95.4%"}
{"Compound": "CSCC[C@@H]1NC(=O)[C@H](C(C)C)NC(=O)[C@H](CCCNC(=N)N)NC(=O)[C@@H]2CCCN2C(=O)CNC(=O)[C@@H](NC(=O)CNC(=O)[C@H](CO)NC(=O)CNC(=O)[C@H](CO)NC(=S)Nc2ccc(C[C@H]3CN(CC(=O)O)CCN(CC(=O)O)CCN3CC(=O)O)cc2)CSSC[C@@H](C(N)=O)NC(=O)[C@@H]2CCCN2C(=O)CNC(=O)[C@H](CCC(=O)O)NC(=O)[C@H](CC(=O)O)NC(=O)[C@H](CC(=O)O)NC(=O)CNC(=O)[C@H](CC(C)C)NC(=O)[C@H](Cc2c[nH]cn2)NC(=O)[C@H](CC(C)C)NC(=O)CNC(=O)[C@H](Cc2c[nH]cn2)NC1=O [copper-64 labelled]", "test": "dynamic PET", "system": "CD rat, myocardial infarction, left ventricular blood pool", "setting": "intravenous, 18.5 MBq", "endpoint": "blood distribution half-life", "value": "2.2 ± 0.1 min"}
{"Compound": "CC(=O)NCCCC[C@@H]1NC(=O)[C@H](Cc2c[nH]c3c(C)cccc23)NC(=O)[C@H]([C@@H](C)O)NC(=O)[C@H](CC(N)=O)NC(=O)[C@@H](NC(C)=O)C(C)(C)SSC(C)(C)[C@@H](C(=O)N[C@@H](Cc2ccc(OCCN)cc2)C(=O)N[C@@H](Cc2ccc3ccccc3c2)C(=O)NC2(C(=O)N[C@@H](CCC(=O)O)C(=O)N[C@@H](CC(N)=O)C(=O)N[C@@H](Cc3cccnc3)C(=O)N(C)CC(N)=O)CCOCC2)NC1=O", "system": "human, blood", "setting": "0.13 µM, 2 h", "endpoint": "blood to plasma ratio", "value": "0.61 ± 0.03"}
{"Compound": "N=C(N)NCCC[C@H](NC(=O)[C@H](CCCNC(=N)N)NC(=O)[C@H](CCCNC(=N)N)NC(=O)[C@H](CCC(N)=O)NC(=O)[C@H](CCCNC(=N)N)NC(=O)[C@H](CCCNC(=N)N)NC(=O)[C@H](CCCCN)NC(=O)[C@H](CCCCN)NC(=O)[C@H](CCCNC(=N)N)NC(=O)CNC(=O)[C@H](Cc1ccc(O)cc1)NC(=O)[C@H](Cc1ccccc1)NC(=O)[C@H](Cc1ccccc1)NC(=O)[C@H](Cc1ccccc1)NC(=O)OCC1c2ccccc2-c2ccccc21)C(=O)O", "system": "C57BL/6 mice", "setting": "intraperitoneal, 20 mg/kg, 48 h", "how to read": "direction not given", "endpoint": "health score", "value": 5}
{"note": "For quick reference, copied from above:"}
{"Compound": "CN1Cc2cc(Cl)ccc2-n2c(nnc2C2CCN(c3cccc([18F])n3)CC2)C1", "test": "PET two-tissue compartment model", "system": "rhesus monkey, hippocampus", "setting": "intravenous, dose not given, 70 min scan, baseline scan", "endpoint": "total volume of distribution", "value": "1.01 ± 0.3 mL/cm3"}
